Results pooled from the literature.
Compare with care: the assays were run in different laboratories. Values joined by “and” are separate records of one study, mostly repeats; a detail may differ. ± marks the error that the study gave.

CO[C@@H]1[C@@H](O[C@@H]2O[C@H](C)[C@@H](O[C@H]3C[C@@](C)(O)[C@@H](OC(=O)NC4CCCCC4)[C@H](C)O3)[C@H](N(C)C)[C@H]2O)[C@@H](CC=O)C[C@@H](C)[C@@H](O[C@H]2CC[C@H](N(C)C)[C@@H](C)O2)/C=C/C=C/C[C@@H](C)OC(=O)C[C@H]1O  IC50 (HGC-27; cell growth or viability, CCK-8; 72 h): > 50 µM
NS(=O)(=O)Nc1ncnc(OCCOc2ncc(Br)cn2)c1-c1ccc(Br)cc1  Vmax (metabolite formation; female Beagle dog, liver microsomes; 5 mg/kg daily for 4 weeks): 1030 ± 23 pmol/min/mg
CCCCCCCCCCOc1c(O)cc(C(=O)O[C@@H]2Cc3c(O)cc(O)cc3O[C@@H]2c2cc(O)c(O)c(O)c2)cc1O  IC50 (A-431; cell growth or viability, CCK-8; 24 h): 100 µM
CCCCCCCCC=CCCCCCCCC(=O)OCC1OC(n2ccc(N)nc2=O)C(F)(F)C1O (stereo not shown)  IC50 (C26-G (mouse, gemcitabine-resistant); cell growth, SRB; 72 h): 0.03 ± 0.02 µM
CC(=O)O[C@@H]1C[C@H]2C(C)(C)[C@H](O)CC[C@]2(C)[C@H]2CC[C@@]3(C)C(=CC[C@H]3[C@@H](C)C[C@@H](O)[C@H](O)C(C)(C)O)[C@@]21C  IC50 (fibroblasts; cytotoxicity, MTT): > 30 µM
O=C1NC(c2ccc(N3CCOCC3)cc2)(c2ccsc2)CC(O)=C1Sc1ccccc1Cl (stereo not shown)  IC50 (SNU-398; lactate production, refers to: lactate in supernatant; 6 h): > 2 µM
CC1=C/C(=N\N=C(/S)Nc2cccnc2)CC(C)(C)C1  IC50 (LDR; cell viability, MTS; 4 days): 2.5 µM
CCCCCCCCCCCC(=O)NCCC(=O)N[C@@H](CCCNC(=N)N)C(=O)N[C@@H](CCCNC(=N)N)C(=O)N[C@@H](CCCNC(=N)N)C(=O)N[C@@H](CCCNC(=N)N)C(=O)N[C@H](CCCNC(=N)N)C(=O)N[C@H](CCCNC(=N)N)C(=O)N[C@H](CCCNC(=N)N)C(=O)N[C@H](CCCNC(=N)N)C(=O)N[C@H](CCCNC(=N)N)C(=O)N[C@@H](CCCCNC(=S)Nc1ccc2c(c1)C(=O)OC21c2ccc(O)cc2Oc2cc(O)ccc21)C(N)=O  peak area (Jurkat; RP-HPLC fluorescence, refers to: Arg peptide metabolite; culture medium; 6 h): 62.6%
O=C(Cc1ccc2ccccc2c1)N[C@H](Cc1ccccc1)C(=O)N[C@H](Cc1ccc(O)cc1)C(=O)N[C@H](Cc1ccccc1)C(=O)N[C@H](Cc1ccc(OP(=O)(O)O)cc1)C(=O)O  IC50 (HS5; cell growth or viability, MTT): 310 µg/mL
[64Cu+2].c1ccc(CNCc2ccc(CN3CCCN4CCNCCCN(CC4)CC3)cc2)nc1  tissue uptake (CXCR4; NOD/SCID mouse, U87 and U87-stb-CXCR4 xenografts, blood; iv, 90 min, ex vivo): 1.71 ± 0.17 %ID/g
COc1cc(CNC(=O)C[C@H](C)CCC=C(C)C)ccc1OCc1cn(-c2ccc([N+](=O)[O-])cc2)nn1  growth percent (BT-549 breast cancer cells; SRB; 10 µM, 48 h): 72.6%
COCCN1CCCN(c2ccc(Oc3ccc(F)cc3F)c(-c3cn(C)c(=O)c4[nH]ccc34)c2)S1(=O)=O  IC50 (Light II cells; GLI reporter gene, inhibitor; Hedgehog pathway): 0.0339 ± 0.0111 µM
CCc1cc2c(cc1OC)C1(C)Cc3cnc(C)nc3C(C)(C)C1CC2 (stereo not shown)  IC50 (TM3; cell growth or viability, SRB; 24 h): > 100 µM
CCCCC/C=C/C(=O)CCc1ccc(O)c(OC)c1  IC50 (mAb 4-AT4; antibody binding, indirect competitive ELISA; with: coating antigen hapten 4-OVA): 0.0614 µg/mL
CC(=O)Oc1ccc(/C=C/C(=O)Nc2nc(=O)n([C@@H]3O[C@H](C)[C@@H](OC(C)=O)[C@H]3OC(C)=O)cc2F)cc1OC(C)=O  IC50 (AsPC-1; cell viability, MTT; 72 h): 90.1 µM and 90 µM
C1=[N+]2CCCC[N+]3=Cc4ccc5[n]4[Au-]23[n]2c1ccc2-c1nc2ccccc2nc1-5.F[P-](F)(F)(F)(F)F  IC50 (NCI60 human cancer panel; mean of all cell lines): 16 µM
N=C(N/N=C/c1cc2ccccc2[nH]1)N/N=C/c1cc2ccccc2[nH]1  IC50 (IMR-90; cell growth or viability, crystal violet; 72 h): 5.9 µM
O=Cc1c(O)ccc2ccccc12  log2 fold change (HUVEC; RNA sequencing, refers to: SOX18; 75 µM, 24 h; baseline: DMSO): -3.34
Cc1c(C)n(-c2c(C(C)C)cccc2C(C)C)c(=[Se])n1-c1c(C(C)C)cccc1C(C)C.[Cl][Ag]  IC50 (A-431; cell growth or viability, MTT; 72 h): 0.9 µM
C=C1CC[C@H](OCCCNC(=O)CCOCCOCCOCCOCCOCCOCCOCCOCCOCCOCCOCCOCCOCCOCCOCCOCCOCCOCCOCCOCCOCCOCCOCCOCCOCCOCCOCCOCCOCCOCCOCCOCCOCCOCCOCCOCCNC(=O)CCN2C(=O)CC(SC[C@H](NC(=O)[C@H](Cc3ccccc3)NC(=O)[C@H](CC(N)=O)NC(=O)[C@H](Cc3c[nH]cn3)NC(=O)[C@@H](NC(=O)[C@H](CC(=O)O)NC(=O)[C@H](CCC(N)=O)NC(=O)[C@H](CC(C)C)NC(=O)[C@H](CCCCN)NC(=O)[C@H](CCCCN)NC(=O)[C@H](CCCNC(=N)N)NC(=O)[C@H](CC(C)C)NC(=O)[C@H](Cc3c[nH]c4ccccc34)NC(=O)[C@H](CCC(=O)O)NC(=O)[C@@H](NC(=O)[C@H](CCCNC(=N)N)NC(=O)[C@H](CCC(=O)O)NC(=O)[C@H](CCSC)NC(=O)[C@H](CO)NC(=O)[C@H](CC(N)=O)NC(=O)[C@H](CC(C)C)NC(=O)[C@H](Cc3c[nH]cn3)NC(=O)[C@H](CCCCN)NC(=O)CNC(=O)[C@H](CC(C)C)NC(=O)[C@H](CC(N)=O)NC(=O)[C@H](Cc3c[nH]cn3)NC(=O)[C@H](CCSC)NC(=O)[C@H](CC(C)C)NC(=O)[C@H](CCC(N)=O)NC(=O)[C@@H](NC(=O)[C@H](CCC(=O)O)NC(=O)[C@H](CO)NC(=O)[C@@H](NC(=O)[C@@H](N)CO)C(C)C)[C@@H](C)CC)C(C)C)C(C)C)C(N)=O)C2=O)C/C1=C/C=C1\CCC[C@]2(C)[C@@H]([C@H](C)CCCC(C)(C)O)CC[C@@H]12 (stereo partly shown)  dose-normalized AUC (Sprague Dawley rat; subcutaneous, 14.2 µg/kg daily, 21 days; baseline: 1 µg/kg dose): 0.99
COc1c(C)c(OC(=O)c2ccccc2)c(C)c(OC(=O)c2ccccc2)c1C(=O)/C=C/c1ccccc1  IC50 (KKU-M213; cell growth or viability, SRB; 72 h): 31.6 µM
CC(C)=CCC1=C([O-])C(=O)c2ccccc2C1=O.CC(C)=CCC1=C([O-])C(=O)c2ccccc2C1=O.Cc1cc2cccnc2c2ncccc12.[Cu+2]  IC50 (A2780; cell viability, MTT; 24 h): 0.55 µM and ~0.6 µM
COc1cc(CCC(C)=O)ccc1O  IC50 (mAb 4-AT4; antibody binding, indirect competitive ELISA; with: coating antigen hapten 5-OVA): > 4 µg/mL
Cc1cc(Cl)cc(-c2ccnc3cc(CN4C(=O)C5C(C4=O)C5(C)C)sc23)c1C[C@@H]1CNCCO1 (stereo partly shown)  IC50 (CAPAN-1; cell growth or viability, SRB; 5 days): 0.17 µM
Cc1ccc(C(C)C)cc1.Oc1ccccc1C=NNC1=Nc2ccccc2-c2[nH]c3ccc(Br)cc3c2C1.[Cl-].[Cl][Ru+]  IC50 (LNCaP; cell growth or viability, MTT; 96 h): 2.3 µM
C[N+]1(C)CC[NH2+][Pt-2]1([OH])([Cl])([Cl])[O]C(=O)CCC(=O)OCCO  IC50 (CH1; cell growth or viability, MTT; 96 h): 3.4 µM
O=C(N/N=C/c1ccccn1)c1cc(-c2ccc(Cl)cc2)nc2ccccc12  IC50 (HCC4017; cell growth or viability, MTS; 96 h): > 50 µM
[64Cu+2].c1cnc(CNCc2ccc(CN3CCCN4CCNCCCN(CC4)CC3)cc2)nc1  tissue uptake (CXCR4; NOD/SCID mouse, U87 and U87-stb-CXCR4 xenografts, liver; iv, 30 min, ex vivo): 79.2 ± 5.73 %ID/g
